Measured values pooled from the literature.
“And” joins repeats or separate records; there may be more than shown. Numbers after ± are the reported error.

| SMILES | test | test system | setting | how to read | quantity | result |
| --- | --- | --- | --- | --- | --- | --- |
| N#Cc1ccc2c(c1)[C@H]1CCCN(C(=O)c3ccc4[nH]cnc4c3)[C@H]1C2 |  | human, female | 360 mg, day 7 |  | DHEA-S level | 6.7 µmol/L |
| NC1(C(=O)N[C@@H](CCO)c2ccc(Cl)cc2)CCN(c2nc[nH]c3nccc2-3)CC1 |  | metastatic CRPC patients | 320 mg b.i.d., grade 3 to 4, treatment-related, together with: enzalutamide 160 mg daily |  | incidence of Arthralgia | 0% |
| CNC(=O)c1ccc(-c2cnc3ncc(Cc4ccc5ncccc5c4)n3n2)cc1F |  | Japanese patients | oral, 400 mg twice daily, any grade |  | Pneumonitis patients | 2% |
| O=C(Nc1cnccc1Cl)N1CCN(Cc2ccc3c(c2)OC(F)(F)O3)CC1 | multiple ascending dose | young women | 100 mg, treatment-emergent adverse events |  | abdominal pain incidence | 0% |
| O=C(O)C1=CO[C@@H](O[C@@H]2O[C@H](CO)[C@@H](O)[C@H](O)[C@H]2O)[C@@H]2C(CO)=CC[C@H]12 | post-procedure stability | rat plasma | 1000 ng/mL, 1 h, room temperature |  | accuracy | 98.2% |
| CNCCOC12CC3(C)CC(C)(CC(Cn4ncc(-c5ccc(N6CCc7cccc(C(=O)Nc8nc9ccccc9s8)c7C6)nc5C(=O)O)c4C)(C3)C1)C2 |  | anaesthetised male beagle dogs | intravenous bolus, 0.03 mg/kg, 120 min |  | plasma concentration | 0 µg/mL |
| FC(F)(F)c1ccc(CNc2ccc(Cc3c[nH]c4ncc(Cl)cc34)cn2)cn1 | refers to: Dizziness | patients with advanced solid tumours, all cohorts | oral, 1000 mg/day, any grade |  | treatment-related adverse events | 4% |
| Cc1nc2cccc(OCC(C)(C)C(=O)NC(C)C)c2c(N)c1C(=O)O |  | male Swiss albino CD-1 mouse, bone marrow | oral, 500 mg/kg, 36 h |  | micronucleated polychromatic erythrocytes | 0.05% |
| CCc1cc(C(=O)NC)c2nccc(N3CCc4c(cc(Cn5ccnc5)cc4-c4cn(C)nc4C(F)(F)F)C3=O)c2c1 |  | Sprague Dawley rats | oral, 100 mg/kg twice daily, 7 days | reference: vehicle | reticulocyte count change | -40.9% |
| C[C@@H](N)C1CCN(S(=O)(=O)c2cccc3cnccc23)CC1 |  | healthy volunteers | 25 mg, fasted |  | participants, with TEAEs, treatment-related | 16.7% |
| C/C(O)=C(\C#N)C(=O)Nc1ccc(C(F)(F)F)cc1 |  | CD-1 mice female, plasma | oral, 10 mg/kg leflunomide daily, 8 h |  | free plasma concentration | 129 ± 36.6 µM |
| C=CCn1c(=O)c2cnc(Nc3ccc(N4CCN(C)CC4)cc3)nc2n1-c1cccc(C(C)(C)O)n1 |  | human | oral, 150 mg twice daily, cycle 1 day 17, together with: durvalumab 1500 mg IV | median | Tmax | 2 h |
| O=C(Nc1nc2cccc(-c3ccc(CN4CCS(=O)(=O)CC4)cc3)n2n1)C1CC1 | refers to: body temperature increased | human rheumatoid arthritis patients | oral, 300 mg once daily, 4 weeks, regardless of relatedness |  | treatment-emergent adverse events | 0% |
| C=CC(=O)NC1CCN(c2ncc3ncnc(Nc4ccc(Oc5ccc6c(c5)ncn6C)c(C)c4)c3n2)CC1 |  | human, male | oral, 240 mg, treatment-emergent adverse event |  | participants with nausea | 6.3% |
| CN(C(=O)n1cnc(-c2cccnc2)c1)[C@H]1CC[C@H](O)CC1 |  | Wistar rat, medulla oblongata | oral, 10 mg/kg/day of BIA 10-2474, 24 h, repeated 5 days |  | concentration | 16.1 ± 1.1 ng/g |
| c1ccc2c(c1)ccc1ccccc12 |  | polyethylene-water partitioning | PAH compilation |  | literature range of log K | 4.04 to 4.78 log units |

| SMILES | test | test system | setting | how to read | quantity | result |
| --- | --- | --- | --- | --- | --- | --- |
| O=C(O)CCCc1ccccc1 | binding, MIDAS equilibrium dialysis LC-MS | A2AR-BRIL thermostabilized | concentration not given | reference: no-protein control | log2 fold change | -0.175 |
| O=C(O)CCC(=O)O.[2H]C([2H])([2H])Oc1cc(C)c2[nH]ccc2c1CN1CC[C@@H](C2CC2)C[C@H]1c1ccc(C(=O)O)cc1 |  | human, plasma | 50 mg twice daily, day 10, multiple ascending dose |  | Vss/F | 74.6 L |
| Cc1c(-c2ccc(N3CCc4cccc(C(=O)Nc5nc6ccccc6s5)c4C3)nc2C(=O)O)cnn1CC12CC3(C)CC(C)(C1)CC(OCCNCC[C@H](O)CO)(C3)C2 |  | anaesthetised male beagle dogs | intravenous infusion, 0.3 mg/kg/min, 105 min | reference: vehicle | cardiac output change | -50% |
| CNC(=O)c1ccc(-c2cnc3ncc(Cc4ccc5ncccc5c4)n3n2)cc1F |  | gastric cancer patients | oral, 600 mg twice daily, all grades RP2D expansion |  | abdominal distension incidence | 0% |
| CC(C)C[C@H](N)C(=O)N[C@@H](Cc1c[nH]c2ccccc12)C(=O)N[C@@H](Cc1c[nH]c2ccccc12)C(=O)N[C@@H](CCCNC(=N)N)C(=O)N[C@@H](Cc1c[nH]c2ccccc12)C(=O)N[C@@H](Cc1c[nH]c2ccccc12)C(=O)N[C@@H](CCCNC(=N)N)C(=O)N[C@@H](Cc1c[nH]c2ccccc12)C(=O)N[C@@H](CCCNC(=N)N)C(=O)O | circular dichroism | 10 mM PBS | together with: peptide 150 µM |  | helix content | 1.94% |
| CN[C@@H]1COc2c(S(=O)(=O)NC(=O)Nc3c4c(cc5c3CCC5)CCC4)cnn2C1 |  | human, urine | oral, 900 mg, 0-48 h |  | renal clearance | 8.97 mL/min |
| COc1ccc2c(c1)CN(C(=O)CCN1CCC(Cc3ccccc3)CC1)CC[S@@+]2[O-] |  | beagle dog, female, plasma | intravenous, 8 mg/kg, day 1, 14-day toxicity study |  | unbound plasma concentration | 6.49 µM |
| CC[C@@H]([C@H](C)O)n1ncn(-c2ccc(N3CCN(c4ccc(OC[C@@H]5CO[C@@](Cn6cncn6)(c6ccc(F)cc6F)C5)cc4)CC3)cc2)c1=O |  | rat plasma | 800 ng/mL, 4 h, 10 °C, autosampler | reference: nominal concentration | stability relative error | -1.3% |
| CCN1/C(=C/C(C)=O)Sc2ccc(F)cc21 |  | cynomolgus monkey | oral, 10 mg/kg, 2 h post-dose | reference: pre-dose | diastolic blood pressure change | 106 ± 6.1% |
| CNC(=O)c1cc(Oc2ccc(NC(=O)Nc3ccc(Cl)c(C(F)(F)F)c3)c(F)c2)cc[n+]1[O-] | short-term stability | mouse plasma | 750 ng/mL, 8 h, room temperature |  | accuracy | 101% |
| Cc1ccc([C@@H]2O[C@H](CO)[C@@H](O)[C@H](O)[C@H]2O)cc1Cc1ccc(-c2ccc(F)cc2)s1 | refers to: inorganic phosphorus | Japanese type 2 diabetes patients | 100 mg, day 1, 24 h urine collection | reference: baseline | urinary phosphate excretion change | -240 mg |
| O=C(OC(C(F)(F)F)C(F)(F)F)N1CCN(Cc2cccc(Oc3ccccc3)c2)CC1 | PET blocking study | rhesus monkey, brain HIP | 0.3 mg/kg, compound pretreatment, together with: [18F]T-401 tracer |  | k2 | 1.81 min⁻¹ |
| CCCC(CCC)C(=O)Oc1cccc(C(O)CCN)c1.O=CO (stereo not shown) |  | Abca4-/-Rdh8-/- mice, photic damage | oral, 20 mg/kg, 7 days, flash intensity 0.01 |  | ERG, scotopic, rod b-wave | 82.7 µV and 93.5 µV and 65.6 µV and 85.6 µV and 58.2 µV and 70.9 µV |
| NCCCCN=C(N)N | binding, MIDAS equilibrium dialysis LC-MS | A2AR-BRIL thermostabilized | concentration not given | reference: no-protein control | log2 fold change | -0.00783 |
| CN1CC(=O)N2[C@H](c3ccc4c(c3)OCO4)c3[nH]c4ccccc4c3C[C@@H]2C1=O |  | human plasma | 1.50 ng/mL, freeze-thaw at -70 °C |  | accuracy | 97.8% |

For quick reference, copied from above:
| SMILES | test | test system | setting | how to read | quantity | result |
| --- | --- | --- | --- | --- | --- | --- |
| CNC(=O)c1ccc(-c2cnc3ncc(Cc4ccc5ncccc5c4)n3n2)cc1F |  | Japanese patients | oral, 400 mg twice daily, any grade |  | Pneumonitis patients | 2% |
| O=C(Nc1cnccc1Cl)N1CCN(Cc2ccc3c(c2)OC(F)(F)O3)CC1 | multiple ascending dose | young women | 100 mg, treatment-emergent adverse events |  | abdominal pain incidence | 0% |
| O=C(O)C1=CO[C@@H](O[C@@H]2O[C@H](CO)[C@@H](O)[C@H](O)[C@H]2O)[C@@H]2C(CO)=CC[C@H]12 | post-procedure stability | rat plasma | 1000 ng/mL, 1 h, room temperature |  | accuracy | 98.2% |
| CNCCOC12CC3(C)CC(C)(CC(Cn4ncc(-c5ccc(N6CCc7cccc(C(=O)Nc8nc9ccccc9s8)c7C6)nc5C(=O)O)c4C)(C3)C1)C2 |  | anaesthetised male beagle dogs | intravenous bolus, 0.03 mg/kg, 120 min |  | plasma concentration | 0 µg/mL |
